Experimental data pooled from the literature.
A part holds a random share of what one study measured. Substitutions count along the parent as printed.

Series 1 — technique: protein-binding microarray; molecule type: double-stranded DNA, one strand shown; matrix: in vitro; concentration: not given; direction: higher = stronger binding
Target: Myc proto-oncogene protein, bHLH-zipper, MAX partner unstated (MYC, Homo sapiens, UniProt P01106, residues 368-449)
Chain of UniProt P01106 (368-449, looked up): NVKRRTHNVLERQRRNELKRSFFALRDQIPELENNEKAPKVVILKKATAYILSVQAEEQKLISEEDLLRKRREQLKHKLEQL
Setting: k-mer, scored over probes, only values ≥0.25
Oligonucleotide	E-score
CAGACATG	0.283
GGGTGGTA	0.25
ACGCACGC	0.43
ACGCCTAT	0.274
GGCATGCC	0.38
CGTGTCGA	0.35
ACGTGCAT	0.428
GCTGAGCA	0.306
CACCTGCG	0.362
CCCTCGCG	0.292
GTGAGCAC	0.258
ACATTGTG	0.297
AATGTGCG	0.353
CCATGAGA	0.277
CACGCCAA	0.263
CATTGCAC	0.25
CAACGAGG	0.341

Series 2 — technique: aptamer microarray, sandwich; molecule type: DNA with 2'F-ANA; matrix: in vitro; concentration: 200 nM; added: Cy3 exosite-II aptamer, 400 nM; direction: higher = stronger binding; oligonucleotide: GGTTGGTGTGGTTGG
Target: Prothrombin, mature alpha-thrombin (F2, Homo sapiens, UniProt P00734)
Setting: whole 15-mer aptamer, many near background
Modification	mean fluorescence intensity
2'F-ANA at 1 2 3 4 5 7 8 10 11 13 15	53.1 a.u.
2'F-ANA at 2 8 9 10 11 13 15	102 a.u.
2'F-ANA at 2 3 12 13 14	486 a.u.
2'F-ANA at 1 2 3 5 8 10 12 15	48.2 a.u.
2'F-ANA at 1 2 4 9 10 15	51.8 a.u.
2'F-ANA at 1 2 5 8 11 12 15	109 a.u.
2'F-ANA at 1 4 6 7 10 14	45.1 a.u.
2'F-ANA at 3 4 5 6 9 10 11 12 14 15	51.8 a.u.
2'F-ANA at 1 2 5 8 11 12 13 15	72.2 a.u.
2'F-ANA at 3 4 5 6 7 9 10	64.5 a.u.
2'F-ANA at 1 2 4 5 6 9 14 15	47.6 a.u.
2'F-ANA at 2 3 4 5 6 7 11 12 13 15	110 a.u.
2'F-ANA at 1 3 5 10 12 13 14	59 a.u.
2'F-ANA at 2 6 7 10 14 15	82.4 a.u.
2'F-ANA at 2 3 5 6 7 8 10 12 15	58.4 a.u.
2'F-ANA at 2 3 5 6 7 10 11 12 13 15	75.6 a.u.
2'F-ANA at 1 3 4 5 9 10 14 15	49.7 a.u.
2'F-ANA at 1 2 3 5 6 7 8 10 12 15	52.4 a.u.
2'F-ANA at 1 3 5 8 12 15	131 a.u.
2'F-ANA at 2 3 5 6 9 11 12 13	115 a.u.
2'F-ANA at 5 8 13 14	46 a.u.
2'F-ANA at 1 8 9 11 12 15	287 a.u.
2'F-ANA at 6 7 8 12 13 14	220 a.u.
2'F-ANA at 4 6 7 9 10 11 13 15	68.2 a.u.
2'F-ANA at 4 5 6 7 10 12 13 14	47.6 a.u.

Series 3 — technique: Sort-seq; measured: YFP reporter; matrix: E. coli; setting: PhoQ-PhoP variant library; added: 10 µM Mg2+; relative to: high Mg2+ state; direction: higher = stronger signaling
Substance: PhoQ, residues 284 288 289 292 302 303 GTAMQF
target	fold induction
PhoP, residues 12 14 15 18 19 LHHYF (Escherichia coli, UniProt P23836)	18.8
PhoP, residues 12 14 15 18 19 TPWTL (Escherichia coli, UniProt P23836)	0.987
PhoP, residues 12 14 15 18 19 VGHWL (Escherichia coli, UniProt P23836)	1.33

Series 4 — technique: DHFR PCA, deep sequencing; matrix: yeast; added: (+)-ABA 4.8 µM; relative to: wild-type fitted maximum; direction: higher = stronger binding
Target: ABI1, truncated, D143A, DHFR fusion (Arabidopsis thaliana)
Setting: methotrexate growth selection, single substitutions
Starting sequence: PYL1, truncated, DHFR fusion (Arabidopsis thaliana); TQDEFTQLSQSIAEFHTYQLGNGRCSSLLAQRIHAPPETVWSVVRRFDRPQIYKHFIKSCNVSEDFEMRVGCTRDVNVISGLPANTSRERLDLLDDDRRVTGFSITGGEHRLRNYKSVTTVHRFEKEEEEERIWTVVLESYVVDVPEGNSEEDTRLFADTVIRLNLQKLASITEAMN
Substitution	relative binding score [%]
W134C	85.4
V161N	0.114
W41D	-15.4
H122E	22.9
H122N	17.8
D92H	-7.79
A35Q	6.79
G108P	-7.66
Y115T	-7.36
G21P	63.7
R24F	15.6
V78W	55.8
M68L	88.1
L169I	12.4
K116A	39.8
S80L	18.1
L29R	17.1
S63I	56.8
V40L	-2.51
S140C	-7.32
F15T	-4.55
G107L	1.47
R45Q	-17.4
R123W	23

Series 5 — technique: RNA Bind-n-Seq; molecule type: RNA; matrix: in vitro; concentration: 200 nM; setting: whole 134-nt RNA, ends assumed; added: 150 mM LiCl; relative to: input library; direction: higher = stronger binding; all molecules: 7-deaza-guanosine replaces G
Target: Ras GTPase-activating protein-binding protein 1, full length (G3BP1, Homo sapiens, UniProt Q13283)
Chain of UniProt Q13283 (whole entry, looked up): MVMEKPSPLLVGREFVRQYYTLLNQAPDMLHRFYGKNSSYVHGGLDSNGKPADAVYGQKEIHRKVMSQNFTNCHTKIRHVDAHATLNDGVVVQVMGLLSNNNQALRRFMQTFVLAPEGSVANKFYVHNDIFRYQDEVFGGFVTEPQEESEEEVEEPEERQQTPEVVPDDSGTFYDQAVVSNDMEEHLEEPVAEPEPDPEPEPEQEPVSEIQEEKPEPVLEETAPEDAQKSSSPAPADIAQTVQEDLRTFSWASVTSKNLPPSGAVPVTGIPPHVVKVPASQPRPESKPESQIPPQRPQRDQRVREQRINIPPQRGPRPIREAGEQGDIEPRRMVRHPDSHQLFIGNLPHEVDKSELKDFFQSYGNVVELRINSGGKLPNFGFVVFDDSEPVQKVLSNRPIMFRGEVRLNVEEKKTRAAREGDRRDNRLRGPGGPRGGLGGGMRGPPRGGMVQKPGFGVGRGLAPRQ
Constant ends, left off below: GGGAGUUCUACAGUCCGACGAUC … UGGAAUUCUCGGGUGUCAAGG
Oligonucleotide	log2 enrichment
CUCAAGUCCUGUGCUACACAUCGUAUGUACCGAAUCGGGAGGGUGGGAAAGGGAAAGUAUUAUGUUACGCCGUUCGGAUCUGCACUUCCA	-0.333
CCUCAAGUCCUGUGCUACACAUCGUAUGUACCGAAUCGGGGUGGGGUGGUGGGAAAGUAUUAUGUUACGCCGUUCGGAUCUGCACUUCCA	-0.271
UUAGGAAGAGAAGACAAGGUGGCCUCUCAUUAGAAGAAGAGGAAGAGGAGGAUGCCAAUUCAGAAUCUGAGGGAAGCAGUAGUGAGGAGG	-1.38
UCCUGUGCUACACAUCGUAUGUACCGAAUCGGGGCCCCCGGCCCCCGGGGCCCCCGGGGAAAGUAUUAUGUUACGCCGUUCGGAUCUGCA	-1.62
UCAAGUCCUGUGCUACACAUCGUAUGUACCGAAUCGGCCCGGGCCCGGGGCCCGGAAAGUAUUAUGUUACGCCGUUCGGAUCUGCACUUC	-0.581
ACCAUGCAGGUGGGCAUCUUUGGGAAGUGGGGCAAGGGGGGGAUAGGGAGGGGGGUAACACUUUGGGAACAGGUGGUCCCAGGUCGUUAC	0.367
ACCAUGCAGGUGGGCAUCUUUGGUAAGUGGGGCAAGGGGGGGAUAGGGAGGGGGGUAACACUUUGGGAACAGGUGGUCCCAGGUCGUUUC	0.295
GCAGGAAGUAAAAGCAAAUGGAAAUGCUUCGGAUAGUGGCAGGGGUGGGGGUUGCUAAGGAAAGGGUGGGAUGGGAGUGGGUAAAGAGUU	0.2
CCUGUGCUACACAUCGUAUGUACCGAAUCGGGGCCCCCGGGGCCCCCGGGGCCCCCGGGGAAAGUAUUAUGUUACGCCGUUCGGAUCUGC	-1.07
CAAGUCCUGUGCUACACAUCGUAUGUACCGAAUCGGGAAAGGGGAAAGGAAAGGGGAAAGUAUUAUGUUACGCCGUUCGGAUCUGCACUU	-0.165
CCUCAAGUCCUGUGCUACACAUCGUAUGUACCGAAUCGGUUGGGUUGGUUGGGAAAGUAUUAUGUUACGCCGUUCGGAUCUGCACUUCCA	0.256

Series 6 — technique: RNA Bind-n-Seq; molecule type: RNA; matrix: in vitro; concentration: not given; relative to: input RNA pool; direction: higher = stronger binding
Target: RING finger protein unkempt homolog, zinc fingers 1-6, GST-SBP tag (UNK, Homo sapiens, UniProt Q9C0B0, residues 30-357)
Chain of UniProt Q9C0B0 (30-357, looked up): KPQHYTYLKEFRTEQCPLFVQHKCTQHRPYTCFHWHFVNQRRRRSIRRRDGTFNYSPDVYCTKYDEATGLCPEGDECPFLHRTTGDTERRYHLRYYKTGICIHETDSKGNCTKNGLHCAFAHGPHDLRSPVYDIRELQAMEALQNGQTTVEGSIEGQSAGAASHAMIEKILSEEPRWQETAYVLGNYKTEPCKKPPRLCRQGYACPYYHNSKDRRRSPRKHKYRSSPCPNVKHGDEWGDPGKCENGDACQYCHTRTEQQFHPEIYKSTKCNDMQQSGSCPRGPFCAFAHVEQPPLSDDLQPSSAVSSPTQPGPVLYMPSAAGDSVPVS
Setting: RNA with constant flanks, human and mouse sites, ends assumed
Constant ends, left off below: GGGAGUUCUACAGUCCGACGAUC … CAACAGAGGAUUGAGCAUCA
Oligonucleotide	bound/input enrichment [ratio]
GUUCGGCUCUGGGAUCAUGCCACAAUGACAGAAGUGAAAUCUCUGAAUUUUAAUAUGUCUGUUAGCAGCAUGGAGUAUAUUCCUGAAGGAGAGAUUUUGGUUAUUACUUAUGGACGAUCU	0.3
CCUGAGCCUGUGGCUCAACCUCAGCCUCAGUCUCAGCCCCAGCUUCAGCUUCAAUCCCAGUCCCAACCAGUACUCCAGUCCCAGCCUCCCUCUCAGCCUGAGGAUUUGUCAUUAGCUGUU	0.387
AUUCCUCUGGAAACAGGACAAAAACAGUACAACGUAGAUUAUAAGCUGGAGACUUACCUGAAGAUUGCAAGGCUAUACCUGGAGGAUGACGAUCCCGUCCAGGCCGAGGCUUACAUAAAC	0.322
CAUCUUAGGUCAUCUUCUGUAGAAGAUGUUAAACUAAUUAUAAGCGAGGGGAGACCUACCAUAGAAGUUCGAAGAUGUAGCAUGCCUUCUGUCAUUUGUGAACAUACCAAACAAUUCCAA	1.12
CUGAGGAACAAUCUCCGCAGCAUAGAGUGGGAUCUGGAGGACCUCGAUGAAACCAUCAGCAUAGUUGAAGCAAAUCCUAGAAAAUUCAACUUGGAUGCAACUGAAUUGAGCAUAAGAAAA	0.438
GGACUUGUGCUCUCUGGAACCACAUUUUCAGACUGUCUCAUGGUGGUGCAGUUCUUACGAAACUUUGGUAAAGUUUUGGGCUUUGAUGUGAAUAUUGAUGUUCCAAACCUCAGUGUUCUU	0.209
UCAACCUAUGCACAGUGAGCUGGUUAAGAAGAUCCUAGGCAACAAAGCUACCUUCAGCCCUAUAGUCACUUUGGAACCUAGAAGAAGAAAAUUCCACAAACCAAUUACCAUGACCAUUCC	0.787
AAGUUAUUAUUAUGCAACCACAAGGGCCUCUUCUUUCUCAGGGUGUCUAAGCUGCUGGGUUGCUUUUCGCCCAAAUCAAUGUGGUUUCUUUGGAACAUUUUCAGCAAAGGAACGCAUAUG	0.415
CCAUUUAAAGACAGAAUCAGCUGGGCUGGAGACCUUGACAAGAAAGAUGCAUCAAUCAACAUAGAAAAUAUGCAGUUUAUACACAAUGGCACCUAUAUCUGUGAUGUCAAAAACCCUCCU	0.541
AUCCAUGCUGCCACCCUCAAGUUGCUAGAGGACCAAGAACUUAGUGUUUCAAGCGUCGUGAAUUUCCAGAUAAUCUCUGUCUACAGACAUAAGAAGUUGCACAAGAUGCUUGAAGAGAAA	0.549
CUUCAGCUGGUGCUUGUCUGGCUGGGUGAAGUGCUAGGUGUCAUUGGGGACUGUCCAGAGCUAGUUCAGCGCUCCUUCCUGGUGGCUAGUGUUCUGCCUGGCCCCGAUGGCAACAUUAAC	0.181

For quick reference, copied from above (series 2):
Modification	mean fluorescence intensity
2'F-ANA at 1 2 3 4 5 7 8 10 11 13 15	53.1 a.u.
2'F-ANA at 2 3 5 6 9 11 12 13	115 a.u.
2'F-ANA at 3 4 5 6 9 10 11 12 14 15	51.8 a.u.
2'F-ANA at 3 4 5 6 7 9 10	64.5 a.u.
2'F-ANA at 1 4 6 7 10 14	45.1 a.u.
